Published values gathered from unrelated publications.
Each line is one published result; not all experiments were run side by side. Numbers after ± are the reported error.
Technique: steady-state kinetics
B1: enzyme (Pseudomonas aeruginosa, UniProt Q9I5Q5); chain MPRYLGLMSGTSLDGMDIVLIEQGDRTTLLASHYLPMPAGLREDILALCVPGPDEIARAAEVEQRWVALAAQGVRELLLQQQMSPDEVRAIGSHGQTIRHEPARHFTVQIGNPALLAELTGIDVVADFRRRDVAAGGQGAPLVPAFHQALFGDDDTSRAVLNIGGFSNVSLLSPGKPVRGFDCGPGNVLMDAWIHHQRGEHFDRDGAWAASGQVNHALLASLLADEFFAARGPKSTGRERFNLPWLQEHLARHPALPAADIQATLLELSARSISESLLDAQPDCEEVLVCGGGAFNTALMKRLAMLMPEARVASTDEYGIPPAWMEGMAFAWLAHRFLERLPGNCPDVTGALGPRTLGALYPA
B2: ispG (Escherichia coli, UniProt P62620); chain MHNQAPIQRRKSTRIYVGNVPIGDGAPIAVQSMTNTRTTDVEATVNQIKALERVGADIVRVSVPTMDAAEAFKLIKQQVNVPLVADIHFDYRIALKVAEYGVDCLRINPGNIGNEERIRMVVDCARDKNIPIRIGVNAGSLEKDLQEKYGEPTPQALLESAMRHVDHLDRLNFDQFKVSVKASDVFLAVESYRLLAKQIDQPLHLGITEAGGARSGAVKSAIGLGLLLSEGIGDTLRVSLAADPVEEIKVGFDILKSLRIRSRGINFIACPTCSRQEFDVIGTVNALEQRLEDIITPMDVSIIGCVVNGPGEALVSTLGVTGGNKKSGLYEDGVRKDRLDNNDMIDQLEARIRAKASQLDEARRIDVQQVEK
B3: efeB (Bacillus subtilis, UniProt P39597); chain IGASGLGGLAPLVQTAAKPSKKDEKEEEQIVPFYGKHQAGITTAHQTYVYFAALDVTAKDKSDIITLFRNWTSLTQMLTSGKKMSAEQRNQYLPPQDTGESADLSPSNLTVTFGFGPGFFEKDGKDRFGLKSKKPKHLAALPAMPNDNLDEKQGGGDICIQVCADDEQVAFHALRNLLNQAVGTCEVRFVNKGFLSGGKNGETPRNLFGFKDGTGNQSTKDDTLMNSIVWIQSGEPDWMTGGTYMAFRKIKMFLEVWDRSSLKDQEDTFGRRKSSGAPFGQKKETDPVKLNQIPSNSHVSLAKSTGKQILRRAFSYTEGLDPKTGYMDAGLLFISFQKNPDNQFIPMLKALSAKDALNEYTQTIGSALYACPGGCKKGEYIAQRLLES
B4: mtnA (Bacillus subtilis, UniProt O31662); chain MTHSFAVPRSVEWKETAITILNQQKLPDETEYLELTTKEDVFDAIVTLKVRGAPAIGITAAFGLALAAKDIETDNVTEFRRRLEDIKQYLNSSRPTAINLSWALERLSHSVENAISVNEAKTNLVHEAIQIQVEDEETCRLIGQNALQLFKKGDRIMTICNAGSIATSRYGTALAPFYLAKQKDLGLHIYACETRPVLQGSRLTAWELMQGGIDVTLITDSMAAHTMKEKQISAVIVGADRIAKNGDTANKIGTYGLAILANAFDIPFFVAAPLSTFDTKVKCGADIPIEERDPEEVRQISGVRTAPSNVPVFNPAFDITPHDLISGIITEKGIMTGNYEEEIEQLFKGEKVH
B5: aspC A106G/A218G/F210I/I29V/I33V/I68L/I71L/N30D/N64T/S135A/T100S/V136I/V375I (Escherichia coli, UniProt P00509); chain MFENITAAPADPILGLADLFRADERPGKVDLGVGVYKDETGKTPVLTSVKKAEQYLLENETTKTYLGLDGLPEFGRCTQELLFGKGSALINDKRARTAQSPGGTGGLRVAADFLAKNTSVKRVWVSNPSWPNHKAIFNSAGLEVREYAYYDAENHTLDFDALINSLNEAQAGDVVLFHGCCHNPTGIDPTLEQWQTLAQLSVEKGWLPLIDFAYQGFGRGLEEDAEGLRAFAAMHKELIVASSYSKNFGLYNERVGACTLVAADSETVDRAFSQMKAAIRANYSNPPAHGASVVATILSNDALRAIWEQELTDMRQRIQRMRQLFVNTLQEKGANRDFSFIIKQNGMFSFSGLTKEQVLRLREEFGVYAVASGRINVAGMTPDNMAPLCEAIVAVL
B6: enzyme (Bilophila wadsworthia, UniProt E5Y8P9); chain MKTVSEQMELARKAQAIVNDYTQEQIDEICLAIGWEVYEDENIAKLAKMAVEETGYGNVQSKIIKHKRKVGGVLHDIKGAKSVGLIERNEETGISKYAKPVGVVCAILPATNPTATCGGKAVGILKGRNAVIFKPSSRALKSTTEAINMMRAGLRKVGAPEDLIQVLEDPSREAITELMKVSDLIVATGSGQVVRAAYSSGTPAYGVGQGNACAIVAEDADVAEAAKMICGSKLFDYATSCSSENAVIPVEAVYDQFMAEMKKNGCYLVTGEDREKLKNHMWKPNAKGKIALNPDIIAKSAQVIADGAGISIPEGTDILLVEGMEPILGDKFHDEKISPVLTVYKAKDFKDAYRILVELTNLVGRGHSCGIHTYKHEYIEFLGEHMKSSRITVRQSMSAGNGGHPFNRMPSTATLGCGTWGGNSTTENVHWRHFINVTWVNEPVAPWTFTDEDMWGDFWKKYGK
B7: enzyme (Nitrosopumilus maritimus, UniProt A9A5X4); chain MDSQKFDSIIFDCDGVLVDITQSYDKTIDKTCRYVLKEFAKIDSITIDHKIIDGFKSSGGFNDEVDLVYAAILSLYTANKLNKKPSEFIYDVISNTDKTGIRSVQSYLESIYDVSEFLSKLGSLGDRHNNPVYSIFDQFFFGPELYGKLFDKQSKFSEEGMISNDKVILSVSLLETLQKEFGKKIAVVTGRGIESIRYSLKDMMDYFDTKNSAFLEDEPRELAKPNPATLIRAIQSMESKNCLYVGDSMEDYMMAKDAAQAGHSTTFCAIVGTSTNPEDRRKLFADSGVEMILESINDIPKVLNLV
B8: enzyme (Arabidopsis thaliana, UniProt Q9FFF6); chain MNKNKIDVKIETKKGSMDEWPEPIVRVQSLAESNLSSLPDRYIKPASLRPTTTEDAPTATNIPIIDLEGLFSEEGLSDDVIMARISEACRGWGFFQVVNHGVKPELMDAARENWREFFHMPVNAKETYSNSPRTYEGYGSRLGVEKGASLDWSDYYFLHLLPHHLKDFNKWPSFPPTIREVIDEYGEELVKLSGRIMRVLSTNLGLKEDKFQEAFGGENIGACLRVNYYPKCPRPELALGLSPHSDPGGMTILLPDDQVFGLQVRKDDTWITVKPHPHAFIVNIGDQIQILSNSTYKSVEHRVIVNSDKERVSLAFFYNPKSDIPIQPLQELVSTHNPPLYPPMTFDQYRLFIRTQGPQGKSHVESHISPR
B9: NUDT3 (Homo sapiens, UniProt O95989); chain MMKLKSNQTRTYDGDGYKKRAACLCFRSESEEEVLLVSSSRHPDRWIVPGGGMEPEEEPSVAAVREVCEEAGVKGTLGRLVGIFENQERKHRTYVYVLIVTEVLEDWEDSVNIGRKREWFKIEDAIKVLQYHKPVQASYFETLRQGYSANNGTPVVATTYSVSAQSSMSGIR
B10: enzyme (Burkholderia cenocepacia, UniProt B4E589); chain MTGYDRQSISDTTAKILLEVQAVHFNAEKPFIFTSGWASPVYIDCRKLISYPRVRRALMEMAETTITRDIGFEQIDAVAGGETAGIPFAAWIADRMMVPMQYVRKKPKGFGRNAQIEGHLEEGSRVLLVEDLTTDSRSKINFVNALRTAGATVNHCFVLFHYNIFKESVSVLKDIDVDLHALATWWDVLRVAKASGYFETKTLDEVEKFLHAPAEWSAAHGGATAPKE
B11: SCO6712 S292F/V290N/Y229F (Streptomyces coelicolor, UniProt Q9XAL8); chain AKGITARTAPAGGEVRHLKMYAEKLADGQMGYGFEKGKASVPGPLIEVNEGDTLHIEFTNTMDVRASLHVHGLDYEISSDGTAMNKSDVEPGGTRTYTWRTHKPGRRDDGTWRPGSAGYWHYHDHVVGTEHGTGGIRNGLYGPVIVRRKGDVLPDATHTIVFNDMTINNRKPHTGPDFEATVGDRVEIVMITHGEFYHTFHMHGHRWADNRTGILTGPDDPSRVIDNKITGPADSFGFQIIAGEGVGAGAWMYHCHNQFHSDMGMVGLFLVKKPDGTIPGYEPHEHGGATAKSGESGEPTGGAAAHEHEH
Sequence of UniProt O80970 (whole entry, looked up): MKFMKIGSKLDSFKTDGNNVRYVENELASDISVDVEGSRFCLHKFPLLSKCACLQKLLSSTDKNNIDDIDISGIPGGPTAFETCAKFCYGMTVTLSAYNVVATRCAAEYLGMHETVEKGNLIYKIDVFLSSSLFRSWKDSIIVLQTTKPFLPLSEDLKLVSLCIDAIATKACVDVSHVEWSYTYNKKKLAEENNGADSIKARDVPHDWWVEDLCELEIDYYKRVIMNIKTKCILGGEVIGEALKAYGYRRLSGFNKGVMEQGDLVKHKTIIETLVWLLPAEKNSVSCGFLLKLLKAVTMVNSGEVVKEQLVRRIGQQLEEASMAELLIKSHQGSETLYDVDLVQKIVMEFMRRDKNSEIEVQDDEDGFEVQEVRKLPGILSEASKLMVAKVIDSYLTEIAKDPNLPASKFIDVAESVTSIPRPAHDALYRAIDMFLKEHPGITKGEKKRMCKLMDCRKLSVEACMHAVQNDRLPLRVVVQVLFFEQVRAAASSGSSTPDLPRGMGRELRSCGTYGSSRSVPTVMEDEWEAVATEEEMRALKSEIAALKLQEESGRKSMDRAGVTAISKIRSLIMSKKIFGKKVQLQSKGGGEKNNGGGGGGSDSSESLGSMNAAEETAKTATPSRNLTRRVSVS

gdh N192L/N97F (Bacillus subtilis) — kcat (NC(=O)c1ccc[n+]([C@@H]2O[C@H](COP(=O)(O)OP(=O)(O)OC[C@H]3O[C@@H](n4cnc5c(N)ncnc54)[C@H](O)[C@@H]3O)[C@@H](O)[C@H]2O)c1; pH 7, 50 °C): 15.6 ± 0.762 s⁻¹
B1 (enzyme) — kcat (CC(=O)N[C@H]1[C@@H]2OC[C@@H](O2)[C@@H](O)[C@@H]1O[C@H](C)C(=O)O; pH 7.5, apparent): 46 ± 13 s⁻¹
enzyme (UniProt Q83XK4) — kcat (NC(=O)C1=CN([C@@H]2O[C@H](COP(=O)(O)OP(=O)(O)OC[C@H]3O[C@@H](n4cnc5c(N)ncnc54)[C@H](OP(=O)(O)O)[C@@H]3O)[C@@H](O)[C@H]2O)C=CC1; pH 7, 30 °C, cofactor varied): 0.24 ± 0.02 s⁻¹
enzyme (Ectocarpus siliculosus, UniProt D7FYY3) — kcat (Nc1ncnc2c1ncn2[C@@H]1O[C@H](COP(=O)(O)OP(=O)(O)O)[C@@H](O)[C@H]1O; pH 5.5, 25 °C, together with: 16 mM PEP): 17.6 ± 0.2 s⁻¹
B2 (ispG) — kcat (C[C@@]1(CO)OP(=O)(O)OP(=O)(O)OC[C@H]1O): 0.395 s⁻¹
B3 (efeB) — kcat (Nc1c(S(=O)(=O)O)cc(Nc2cccc(S(=O)(=O)CCOS(=O)(=O)O)c2)c2c1C(=O)c1ccccc1C2=O; pH 4, 25 °C, apparent): 1.5 ± 0.1 s⁻¹
B4 (mtnA) — kcat (O=P(O)(O)O[C@H]1O[C@H](CO)[C@@H](O)[C@H]1O; pH 7.5, 25 °C): 0.087 ± 0.005 s⁻¹
B5 — kcat (O=C(O)C(=O)Cc1ccccc1; pH 7.5, 25 °C, together with: PLP 20 µM, ammonium acetate 10 mM): 98 s⁻¹
enzyme (Arabidopsis thaliana, UniProt O80970) — kcat (Nc1nc2c(ncn2[C@@H]2O[C@H](COP(=O)(O)OP(=O)(O)OP(=O)(O)O)[C@@H](O)[C@H]2O)c(=O)[nH]1; pH 7.5, 30 °C): 0.0512 s⁻¹
B6 (enzyme) — kcat (NC(=O)c1ccc[n+]([C@@H]2O[C@H](COP(=O)(O)OP(=O)(O)OC[C@H]3O[C@@H](n4cnc5c(N)ncnc54)[C@H](OP(=O)(O)O)[C@@H]3O)[C@@H](O)[C@H]2O)c1; pH 9.5, apparent, cofactor varied): 38.9 ± 0.9 s⁻¹
B7 (enzyme) — kcat (N[C@H](COP(=O)(O)O)Cc1c[nH]cn1; pH 7.8, 25 °C): 0.79 ± 0.06 s⁻¹
B8 (enzyme) — kcat (CC/C=C\C[C@@H]1C(=O)CC[C@@H]1CC(=O)O; pH 7.5, 20 °C): 0.0093 s⁻¹
B9 (NUDT3) — kcat (Nc1ncnc2c1ncn2[C@@H]1O[C@H](COP(=O)(O)OP(=O)(O)OP(=O)(O)OP(=O)(O)OP(=O)(O)OC[C@H]2O[C@@H](n3cnc4c(N)ncnc43)[C@H](O)[C@@H]2O)[C@@H](O)[C@H]1O; together with: Mg2+): 0.0004 ± 0.00032 s⁻¹
HNL C81L/E79H/G176S/H103V/K236M/N104A/T11G/V106F (Hevea brasiliensis) — kcat (CC(=O)Oc1ccc([N+](=O)[O-])cc1; pH 7.2, 22 °C): 0.065 ± 0.00833 s⁻¹
B10 (enzyme) — kcat (O=C(O)c1cc(=O)[nH]c(=O)[nH]1; pH 7, room temperature, together with: PRPP 5 mM): 0.12 ± 0.014 s⁻¹
enzyme (Klebsiella pneumoniae, UniProt A6THV5) — kcat (CSCC[C@@H](NC(C)=O)C(=O)O; pH 8, 35 °C): 1.51 ± 0.0367 s⁻¹
spt R378K (Sphingomonas paucimobilis) — kcat (CCCCCCCCCCCCCC(=O)SCCNC(=O)CCNC(=O)[C@H](O)C(C)(C)COP(=O)(O)OP(=O)(O)OC[C@H]1O[C@@H](n2cnc3c(N)ncnc32)[C@H](O)[C@@H]1OP(=O)(O)O; together with: PLP): 0.19 ± 0.01 s⁻¹
acsA D449E (Pseudomonas chlororaphis) — kcat (C#CCCC(=O)O; pH 7): 0.0983 ± 0.00667 s⁻¹
B11 (SCO6712 S292F/V290N/Y229F) — kcat (CCn1c(=NN=c2sc3cc(S(=O)(=O)O)ccc3n2CC)sc2cc(S(=O)(=O)O)ccc21; pH 7, 37 °C, NaCl 150 mM, together with: O2 cosubstrate): 1.38 ± 0.04 s⁻¹

Some of these lines once more:
B5 — kcat (O=C(O)C(=O)Cc1ccccc1; pH 7.5, 25 °C, together with: PLP 20 µM, ammonium acetate 10 mM): 98 s⁻¹
enzyme (Arabidopsis thaliana, UniProt O80970) — kcat (Nc1nc2c(ncn2[C@@H]2O[C@H](COP(=O)(O)OP(=O)(O)OP(=O)(O)O)[C@@H](O)[C@H]2O)c(=O)[nH]1; pH 7.5, 30 °C): 0.0512 s⁻¹
B6 (enzyme) — kcat (NC(=O)c1ccc[n+]([C@@H]2O[C@H](COP(=O)(O)OP(=O)(O)OC[C@H]3O[C@@H](n4cnc5c(N)ncnc54)[C@H](OP(=O)(O)O)[C@@H]3O)[C@@H](O)[C@H]2O)c1; pH 9.5, apparent, cofactor varied): 38.9 ± 0.9 s⁻¹
